Measured values collected from several papers.
Each numbered part is a random draw from the data of one study; scales do not carry over between parts.

Study 1 — read-out: enzyme activity; mode: inhibitor; tested at: 20 µM; notes: hit confirmation, no DTT
Target: Replicase polyprotein 1ab, main protease (rep, Severe acute respiratory syndrome coronavirus 2, UniProt P0DTD1)
| Structure (SMILES) | inhibition |
| --- | --- |
| CCN(CC)C(=S)S | 91.8% |
| O=[N+]([O-])c1ccc(O)c2ncccc12 | 55.3% |
| Cc1ccc(S(=O)(=O)N[C@@H](Cc2ccccc2)C(=O)CCl)cc1 | 108% |
| O=C1c2c(O)cccc2Cc2cccc(O)c21 | 75.8% |

Study 2 — target: Sox-I, HMG box (Salpingoeca helianthica); technique: Spec-seq; molecule type: double-stranded DNA, one strand shown; matrix: in vitro; tested at: not given; notes: whole probe, mean of replicates; relative to: not given; reading: lower = stronger binding
Residues (chain): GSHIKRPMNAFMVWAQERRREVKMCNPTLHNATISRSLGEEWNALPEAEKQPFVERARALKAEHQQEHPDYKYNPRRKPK
| Strand | relative binding energy |
| --- | --- |
| GAGTCGTCTCGTCAGCACCATTCAGCCGTAGAGCACTCAGGTC | 0.257 ln ratio |
| GAGTCGTCTCGTCAGCACCATGAACCCGTAGAGCACTCAGGTC | 0.583 ln ratio |
| GAGTCGTCTCGTCAGCACCATCGGGCCGTAGAGCACTCAGGTC | 1.08 ln ratio |
| GAGTCGTCTCGTCAGCACCATCCCTCCGTAGAGCACTCAGGTC | 0.6 ln ratio |

Study 3 — cell line: HEK-293T/ACE2; tested at: 10 µM; time: 16 h; relative to: vehicle
| SMILES | viability |
| --- | --- |
| CN1CC(=O)N2[C@H](c3ccc4c(c3)OCO4)c3[nH]c4ccccc4c3C[C@@H]2C1=O | 101% |
| O=c1oc2ccccc2c(O)c1Cc1c(O)c2ccccc2oc1=O | 99.7% |
| CC(C)[C@H](N)C(=O)OCC(CO)OCn1cnc2c(=O)nc(N)[nH]c21 (some centres unmarked) | 102% |
| Nc1ccc(/N=N/c2ccccc2)c(N)n1 | 105% |

Study 4 — technique: RNA Bind-n-Seq; molecule type: RNA; matrix: in vitro; tested at: 365 nM; relative to: no-protein control; reading: higher = stronger binding
Target: RNA binding protein fox-1 homolog 2, RRM domain, GST-SBP tag (RBFOX2, Homo sapiens, UniProt O43251-10, residues 100-194)
Notes: natural RNA segment, single round, ends assumed
Residues (chain): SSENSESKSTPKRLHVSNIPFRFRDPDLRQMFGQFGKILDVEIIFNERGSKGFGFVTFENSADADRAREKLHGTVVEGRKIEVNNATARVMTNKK
| Strand | RBNS enrichment (R) |
| --- | --- |
| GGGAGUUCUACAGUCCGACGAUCGGGUCCAGAUGGCUGUCAGGAAGAUGACAAGGUAGGGAGGUAAGGACCGUGUUUGGAGGCUUCUGGUAUCCUAAACACCAAGAUCCACUCAGCCCUGUGCCCUGAUGAUGUGGAAUUCUCGGGUGCCAA | 0.446 |
| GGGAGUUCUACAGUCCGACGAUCUUACUUCUGGCUGGUGACAGUAAAGCUGGAAAAUUAAUUUCAGGGUUUUUUGAGGCUUUUGACACAGUUAUUAGUUAAAUCAAAUGUUCAAAAAUACGGAGCAGUGCCUAUGGAAUUCUCGGGUGCCAA | 0.629 |
| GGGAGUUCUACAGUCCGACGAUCCUAGCUCCUAACUGUCAGGCUGACGGACACCUCCCAGGUCUUGCACCCUCAUGCCAACUCUGCCCCAGGUCCAGGCCUCUGGGGCUGAUCUCAGGGAAGCCCAGCUCUGAUGGAAUUCUCGGGUGCCAA | 0.358 |
| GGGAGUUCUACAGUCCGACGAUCGUACGGUCUGAAGUUAUGUCUAGAUAAGACUUCAGACGUCCUGGGAUUGAAAGAAUGUGUGUGAAGGGGUAGAAUUUGUGCGGUAAAGACUUAAAAAAAAAAGUAGGGAGUGGAAUUCUCGGGUGCCAA | 5.79 |
| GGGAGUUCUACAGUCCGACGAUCUAGAGAGAUCCCAGCCCUGGGAGGAGAAGGAAGUUGGGUCAGGCCUCGGUACAAAGGGAAAACACUGAAUUGGCCCCAAAACACAGGAGCAAGCGUGUGGAUUUCCAUUGUGGAAUUCUCGGGUGCCAA | 2.09 |
| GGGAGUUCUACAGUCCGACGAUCAUAUAAUUAUAAGAGGAAGUGUAGUGAAUUGUACAGCUGUUGUAAUAAUGACCUAUUUCUAUAAAAAAAUAAAAUUGUACGGAUUAUGUGUAAAUUAUUUUGUAUCUGAGUGGAAUUCUCGGGUGCCAA | 0.596 |
| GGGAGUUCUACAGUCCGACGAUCAUUACAAAAUGAAGAUUUAUACCAUUGUGGUUUAAGCUGUACUGAACUAAAUCUGUGGAAUGCAUUGUGAACUGUAAAAGCAAAGUAUCAAUAAAGCUUAUAGACUUAAAUGGAAUUCUCGGGUGCCAA | 0.778 |
| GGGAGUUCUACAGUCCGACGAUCCUUCUAAUGCUUCACUUUUGAUGAUGCAGUAUGUUCCUUUAAAUCUUGGCAGAACUUUCUAAAGCUACUGCUUUCAAUAGAUUCCAGCCGCAUAUUCCCAUGGGCAUAUUUGGAAUUCUCGGGUGCCAA | 0.474 |

Study 5 — read-out: enzyme activity; mode: inhibitor; tested at: 20 µM
Target: Replicase polyprotein 1ab, polymerase (rep, Severe acute respiratory syndrome coronavirus 2, UniProt P0DTD1)
| Compound | inhibition [%] |
| --- | --- |
| CCOC(=O)C(=O)Nc1cccc(OC)c1C(N)=O | 2.57 |
| CC(C)Cc1sc(N)nc1-c1ccc(P(=O)(O)O)o1 | -0.48 |
| CNC(=N)NCCC[C@H](N)C(=O)O | -1.56 |
| COc1c(C)c(C(=O)c2ccc(N)c(C(=O)O)c2)n2ccccc12 | 5.45 |
| CCCCC/C=C\C/C=C\C/C=C\CCCCC(=O)O | -0.46 |
| C#C[C@]1(O)CC[C@H]2[C@@H]3CCc4cc(OC)ccc4[C@H]3CC[C@@]21C | 7.72 |
| CN(C)Cc1ccc(S(=O)(=O)n2ccc(/C=C/C(=O)NO)c2)cc1 | 1.71 |
| COC(=O)C1=C(C)NC(C)=C(C(=O)O[C@H]2CCN(Cc3ccccc3)C2)[C@H]1c1cccc([N+](=O)[O-])c1 | 0.86 |
| O=C1c2c(O)cccc2C([C@@H]2O[C@H](CO)[C@@H](O)[C@H](O)[C@H]2O)c2cc(CO)cc(O)c21 (some centres unmarked) | 8.25 |
| CC(C)(C)NCC(O)c1ccc(O)c(CO)c1 (centres unmarked) | 23.8 |
| C[C@@H]1NC(=O)[C@@H]2CCCN2C(=O)[C@H](CC(N)=O)NC(=O)[C@@H]2CSSC[C@H](N)C(=O)N[C@H]3CSSC[C@H](NC1=O)C(=O)N[C@@H]([C@@H](C)O)C(=O)NCC(=O)N[C@H](C(=O)N[C@@H](Cc1ccc(O)cc1)C(=O)O)CSSC[C@H](NC(=O)[C@H](Cc1ccc(O)cc1)NC(=O)[C@H](CCC(=O)O)NC3=O)C(=O)N2 | 1.54 |
| N[C@@H](Cn1ccc(=O)n(Cc2ccccc2C(=O)O)c1=O)C(=O)O | 2.36 |
| Cc1ccc(C(=O)Nc2ccc(Oc3cc4cnn(C)c4cc3-c3cn[nH]c3)c(F)c2)c(=O)n1-c1ccc(F)cc1 | 1.8 |
| CCCOc1ccn2c(C(C)=O)cc(-c3ccccc3S(C)(=O)=O)c2c1 | 4.73 |
| Cc1nc(Nc2cnn(C3CCNCC3)c2)nc2c1N(C)C(=O)c1cc3ccccc3cc1N2C | 17.3 |
| CC(=O)Oc1ccccc1C(=O)Nc1ccccc1 | -3.57 |
| CNC(=O)[C@@H](NC(=O)[C@H](CC(C)C)[C@H](O)C(=O)NO)C(C)(C)C | -6.77 |
| COc1ccc(-c2cnc3c(-c4cccc5ncccc45)cnn3c2)cc1 | -3.52 |
| C[C@@](Cc1ccc(O)c(O)c1)(NN)C(=O)O | -2.27 |
| c1ccc(C2CC2)c(OCC2=NCCN2)c1 | -20.1 |
| C[C@H](NC(=O)Cc1cc(F)cc(F)c1)C(=O)N[C@@H]1C(=O)N(C)c2ccccc2-c2ccccc21 | -0.56 |
| Cn1ncc2c(N3CCOCC3)nc(-c3cccc(O)c3)nc21 | 9.41 |

Study 6 — technique: EMSA with sequencing; molecule type: double-stranded DNA, one strand shown; matrix: in vitro; tested at: 10 and 20 nM; relative to: negative control set to 0; reading: higher = stronger binding
Target: Hepatocyte nuclear factor 3-alpha (Foxa1, Mus musculus, UniProt P35582, residues 1-468, full length assumed)
Notes: whole designed probe, mean of two concentrations, ends assumed
Target sequence (chain): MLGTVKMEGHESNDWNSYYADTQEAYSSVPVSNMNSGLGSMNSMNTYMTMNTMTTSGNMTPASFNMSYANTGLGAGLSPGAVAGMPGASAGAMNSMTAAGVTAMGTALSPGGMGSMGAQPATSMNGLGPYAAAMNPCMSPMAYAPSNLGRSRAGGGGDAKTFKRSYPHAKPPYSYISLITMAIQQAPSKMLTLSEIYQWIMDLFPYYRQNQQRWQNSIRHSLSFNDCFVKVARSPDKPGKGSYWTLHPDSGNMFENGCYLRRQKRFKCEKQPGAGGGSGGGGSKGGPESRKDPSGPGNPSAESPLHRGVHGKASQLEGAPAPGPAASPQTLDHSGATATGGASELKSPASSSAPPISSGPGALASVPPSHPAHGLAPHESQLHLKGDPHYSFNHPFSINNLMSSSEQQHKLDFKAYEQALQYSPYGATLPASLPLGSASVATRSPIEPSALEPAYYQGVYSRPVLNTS
| Strand | normalised bound fraction [ratio] |
| --- | --- |
| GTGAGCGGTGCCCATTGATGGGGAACTCCTGGCAGCACAAACGACTGAATAACAATTAAACAAAACAGGACAGTCTCCGTGTTTCAAAATGCGCATTTAAACCTAAAAGAAACACGGTGTGTTTACTTTCTGAGCCTGGCCTTCCCTGGGTGCACAGTGAGCCACTTCTGAAAGCGTATGGGCACACCCGCTACAGAAACCAGCTTACACTGGCTCGGTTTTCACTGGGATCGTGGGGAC | 0.367 |
| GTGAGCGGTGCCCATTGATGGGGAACGGTGGGATGGCTGCCCGGTAGAGACCGCCACCCAGACTCCCAGTTGCAGCTTCCTGCTGGGCCACATGGATGTTGTTAGGTTAGTGTTTTAGAGTCATCTAGGCCTAAACAGATCTATCATTTCCATTTCTCTAATTAGTTCCCTAATTTTATTACTGATATCATTATACTTCCTCTTACTCTGGTTCAAAAGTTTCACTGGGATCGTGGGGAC | -0.0159 |
| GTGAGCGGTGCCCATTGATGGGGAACCGTGTCCTACCATGCGGCTTAAGACTTCTCCAAAACACCGTCCCCCCAAATCCAATAAAATTGCAAATTTCACTGTATTTCACAATATCCTAAATAAACATGAACAGCATGCGTTTCTCTTCCTTGCATCAAATATTAATCTGCCCGTGGCCAGCGCCCGCTCCCCCGCGTGTGTGCGCACGCTGGGTAAACATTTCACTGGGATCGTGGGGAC | 0.436 |
| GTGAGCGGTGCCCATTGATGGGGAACAATGTGAGCCATCTCCCGACACTCCGAGTTAATCTATAATGGAGTATTAGCACTGAGACACTGTATATGCCCCTGTCATCCTTTCCCCCAAAGTAATCTAGGGAAAGCCACACAGGCTTTAACACATAATACCTTACTTAATTCCATCAAACAGTGTCCTGAGACTCAGGATTGATAAAATACTGCAGTTCAATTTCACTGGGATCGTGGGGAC | -0.0422 |
| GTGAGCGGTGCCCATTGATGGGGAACGCGTCCCCGCCCAGGGCAAAGCCAGGACAAGGCCTTATATATAGGCCAGGAGAGGGGAGGGCGGTGGCTCTCTGCTGGGCCGCCAGACGGAAGGTAATCTGCGCCGGGGACTGGTAGCTCCTGTCTCCAGGCAGGAATGCACAGGCCGCGCCTGAGGCAGGTGCGTCCCCAGGGAGGGTTCTGCCCTCTGAAGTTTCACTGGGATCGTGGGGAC | -0.0877 |
| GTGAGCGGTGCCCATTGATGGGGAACCAATGGGGTAGGTCAGCCCCAGTGAACTCTCAAATGACCACTGAAGGAGGAAGTGAGTGCAGAGTGTGATACCACTCACATCCCAGCCCAGACTGTTTGCTCAGCTGGTTCTTCCTGCAGAGGAGTGTTGCAATTCGAGATAACACCCCTTCTCATGGCTTCAGGCATCACCTATCTCCTCTAGGCTGCGCTCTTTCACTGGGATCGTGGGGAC | 0.222 |
| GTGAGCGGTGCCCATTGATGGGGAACGTCCATCACCATTATTTATTTTTAAAGCTGCTGAAAAGTGTAAGCCACCGCTTGATTTTGCCTTTCAAAAAAGGGGAAAGAACCCAAATTCAATGTAAATATGGAAAGACCAGCATTGTTTCCACTTGGGCGAAGGCAGACACCCCAATCTGGGCAAAATTGATTCGGGTGGTTGTTGGAAAAAGCAGCTTTCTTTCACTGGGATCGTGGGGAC | 0.134 |
| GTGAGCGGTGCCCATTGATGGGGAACATCTTCCCCCTCTTCCTTGCCCCACCAGCTCACCTTCCCGGGTTATTTGCAGATAGGAAAATAAATAAAGCCGGCATTCGTTAACGCAGTTCTGGCGCAAACTGCTGTTTGCTCTGGATCTAACATGGTCCTTTGGCGACGCCAGGCTCCGGGAGAGCAAAGCACCGTGTCAGGGCCATGATCCGGGCTCGCCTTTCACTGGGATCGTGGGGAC | 0.347 |

Excerpt of the above (study 5):
| Compound | inhibition [%] |
| --- | --- |
| Cc1nc(Nc2cnn(C3CCNCC3)c2)nc2c1N(C)C(=O)c1cc3ccccc3cc1N2C | 17.3 |
| CNC(=O)[C@@H](NC(=O)[C@H](CC(C)C)[C@H](O)C(=O)NO)C(C)(C)C | -6.77 |
| C[C@H](NC(=O)Cc1cc(F)cc(F)c1)C(=O)N[C@@H]1C(=O)N(C)c2ccccc2-c2ccccc21 | -0.56 |
| C#C[C@]1(O)CC[C@H]2[C@@H]3CCc4cc(OC)ccc4[C@H]3CC[C@@]21C | 7.72 |
| N[C@@H](Cn1ccc(=O)n(Cc2ccccc2C(=O)O)c1=O)C(=O)O | 2.36 |
| CNC(=N)NCCC[C@H](N)C(=O)O | -1.56 |
